Assay results pooled from the literature.
Lines come from different studies, so protocols differ. Numbers after ± are the reported error. In brackets after ≈: the same amount, converted by molar mass.
UniProt P04629, sequence (whole entry, looked up): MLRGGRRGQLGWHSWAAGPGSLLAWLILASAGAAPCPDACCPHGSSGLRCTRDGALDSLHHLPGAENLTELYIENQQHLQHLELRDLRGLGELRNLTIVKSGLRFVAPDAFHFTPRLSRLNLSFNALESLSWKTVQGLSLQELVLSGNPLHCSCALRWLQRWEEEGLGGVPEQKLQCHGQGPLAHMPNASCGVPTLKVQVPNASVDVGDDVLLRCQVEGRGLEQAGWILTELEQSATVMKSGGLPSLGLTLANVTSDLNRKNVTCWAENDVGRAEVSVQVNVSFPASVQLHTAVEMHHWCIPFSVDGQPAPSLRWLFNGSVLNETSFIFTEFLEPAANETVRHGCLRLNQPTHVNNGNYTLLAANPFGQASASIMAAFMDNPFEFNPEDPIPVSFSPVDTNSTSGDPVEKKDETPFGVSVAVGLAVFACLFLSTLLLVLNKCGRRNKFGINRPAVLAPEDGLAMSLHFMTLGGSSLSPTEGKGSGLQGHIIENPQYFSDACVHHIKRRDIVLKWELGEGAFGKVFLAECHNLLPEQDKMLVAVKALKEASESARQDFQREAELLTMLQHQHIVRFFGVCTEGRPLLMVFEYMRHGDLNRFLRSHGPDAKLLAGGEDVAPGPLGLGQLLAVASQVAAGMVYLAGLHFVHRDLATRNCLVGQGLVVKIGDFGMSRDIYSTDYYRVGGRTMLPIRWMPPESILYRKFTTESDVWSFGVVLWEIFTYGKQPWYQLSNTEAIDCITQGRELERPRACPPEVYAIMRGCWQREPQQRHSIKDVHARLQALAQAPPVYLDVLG

SMILES	target or system	assay	test system	conditions	how to read	quantity	value
CCS(=O)(=O)Nc1ccc(Oc2ccc(F)cc2F)c(-c2cn(C)c(=O)c3[nH]ccc23)c1		fatal malignant neoplasm progression	human, relapsed/refractory AML	oral, dose not given		treatment-emergent adverse events	0%
O=C1Nc2cc3[nH]nc(-c4ccncc4)c3cc2CN1Cc1ccccc1		refers to: Headache	patients with advanced solid tumours	intravenous, dose not given, all schedules		patients with TEAE	15%
C[C@@H](NC(=O)N1C(=O)[C@H](Cc2ccnc(N)c2)[C@H]1C(=O)O)C1CCCCC1			healthy adult Chinese volunteers	continuous intravenous infusion, 0.3 mg/kg/h, 5-day infusion, CTCAE 5.0 grading		incidence of hypokalemia	0%
COc1ncccc1-c1cnn2ccc(N3CCN(C(=O)OC(C)C)CC3)nc12			rat, STZ model, plasma	oral, 10 mg/kg, 240 min		drug concentration	3.1 µM
CC(C)C[C@H](NC(=O)[C@H](CCCCN)NC(=O)OCC1c2ccccc2-c2ccccc21)C(=O)N[C@H](C(=O)N[C@@H](Cc1ccccc1)C(=O)N[C@@H](Cc1ccccc1)C(=O)N[C@@H](CCCCN)C(=O)NCC(=O)N[C@@H](Cc1ccccc1)C(=O)N[C@@H](C)C(=O)N[C@@H](Cc1c[nH]c2ccccc12)C(=O)N[C@@H](CC(N)=O)C(=O)N[C@H](C(=O)N[C@H]1CSSC[C@@H](C(=O)N[C@@H](Cc2c[nH]cn2)C(=O)N[C@@H](CCCNC(=N)N)C(=O)N[C@@H](CCCNC(=N)N)C(=O)N[C@@H](C)C(=O)N[C@@H](CC(N)=O)C(N)=O)NC(=O)[C@H](C(C)C)NC(=O)[C@H](CCCNC(=N)N)NC(=O)[C@H](C(C)C)NC(=O)CNC(=O)[C@H](CC(N)=O)NC(=O)[C@H](CCCNC(=N)N)NC(=O)[C@H](Cc2ccc(O)cc2)NC(=O)[C@H](C(C)C)NC1=O)C(C)C)C(C)C		circular dichroism, refers to: α-Helix	PBS	80 µM, pH 7.4		secondary structure content	5.91%
O=S(=O)(Nc1ccccc1)c1ccc(NC(=S)Nc2ccccc2)cc1			mouse, male, small intestine	oral, 5 mg/kg daily, 14 days	relative to: body weight	relative organ weight	2.6%
COc1ccnc(C(=O)N[C@H]2COC(=O)[C@H](Cc3ccccc3)[C@@H](OC(=O)C(C)C)[C@H](C)OC2=O)c1OCOC(=O)C(C)C		refers to: urine, rinse and air	mouse, male	oral		oral absorption	12%
CC(C)[C@@H]1NC(=O)CNC(=O)[C@H](CC(N)=O)NC(=O)[C@H](CCCNC(=N)N)NC(=O)[C@H](Cc2ccc(O)cc2)NC(=O)[C@H](C(C)C)NC(=O)[C@@H](NC(=O)[C@@H](NC(=O)[C@H](CC(N)=O)NC(=O)[C@H](Cc2c[nH]c3ccccc23)NC(=O)[C@H](C)NC(=O)[C@H](Cc2ccccc2)NC(=O)CN)C(C)C)CSSC[C@@H](C(=O)N[C@@H](Cc2cnc[nH]2)C(=O)N[C@@H](CCCNC(=N)N)C(=O)N[C@@H](CCCNC(=N)N)C(=O)N[C@@H](C)C(=O)N[C@@H](CC(N)=O)C(N)=O)NC(=O)[C@H](C(C)C)NC(=O)[C@H](CCCNC(=N)N)NC1=O			ICR mice, serum	intraductal mammary, 10 mg/kg, day 5		blood urea nitrogen	10.2 ± 0.94 mmol/L
COc1cc2c(OC3CCOC3)c3c(c(-c4ccc5c(c4)OCO5)c2cc1OC)C(=O)OC3 (centres unmarked)			mouse	oral		CL/F	0.135 L/h
CCc1ccc(CC/C=C/c2ccc3c(c2)C(=O)CC3)cc1			Sprague-Dawley rat, female	oral, 30 mg/kg/day, 14 days		ALP serum activity	98 U/L
O=C(Nc1ccccc1)C1CCN(C(=O)Oc2cccnc2)CC1		Bond-Lader VAS	healthy women	oral, 60 mg	relative to: pre-dose baseline, direction not given	change in alertness score	-0.3
CC1(C)C(/C=C(\Cl)C(F)(F)F)C1C(=O)OC(C#N)c1cccc(Oc2ccccc2)c1 (centres unmarked)		refers to: CYP3A4	human, age 5 years			enzyme contribution to clearance	1.2%
COc1ccc(-c2c(-c3ccc(C#N)c(F)c3)nc(N3CCC(N)CC3)n(C)c2=O)cc1F		refers to: Thrombocytopenia	human patients	oral, dose not given, any grade, dose escalation, NG		treatment-related adverse event incidence	40%
C[C@H]1CN(c2n[nH]c3nc(N[C@H]4CC[C@H](NS(=O)(=O)CCC(F)(F)F)CC4)ncc23)CCO1	NTRK1 (Homo sapiens, UniProt P04629)	biochemical				IC50	≥ 20 µM
NC(=O)c1cccc(-c2cc(OC(=O)NC3CCCCC3)ccc2O)c1			mouse	oral, 10 mg/kg		apparent volume of distribution	313 L/kg
CCCC(CCC)NC(=O)c1ccc2c(c1)OCO2			Swiss albino CD-1 mice, male, bone marrow	intraperitoneal, 350 mg/kg, 24 h		PCE/NCE ratio	0.8
CC(=O)c1c(C)c2cnc(Nc3ccc(C4CCN(CCS(C)(=O)=O)CC4)cn3)nc2n(C2CCCC2)c1=O			HR+/HER2- advanced breast cancer patients	oral, 300 mg		patients with TRAE grade ≥3	75%
COc1cc(Nc2ncc(F)c(Nc3ccc4c(n3)NC(=O)C(C)(C)O4)n2)cc(OC)c1OC			kinase assay buffer	3 h, 0.1% DMSO		solubility	41 µM (≈ 19.3 µg/mL)

SMILES	target or system	assay	test system	conditions	how to read	quantity	value
CO[C@H]1C[C@@H]2CC[C@@H](C)[C@@](O)(O2)C(=O)C(=O)N2CCCC[C@H]2C(=O)O[C@H]([C@H](C)C[C@@H]2CC[C@@H](OC(=O)NCCOCCOCCOCCOCCOCCOCCOCCOCCC(=O)N3CCc4cc(Cn5nc(-c6ccc7oc(N)nc7c6)c6c(N)ncnc65)ccc4C3)[C@H](OC)C2)C[C@@H](O)[C@H](C)/C=C(\C)[C@@H](O)[C@@H](OC)C(=O)[C@H](C)C[C@H](C)/C=C/C=C/C=C/1C			patients with advanced solid tumours	intravenous, 12 mg weekly, any grade		maculopapular rash incidence	16.7%
CC(C)(C)[C@H](NC(=O)[C@H](CCONC(=N)N)NC(=O)Cc1ccc(CNC(=N)N)cc1)C(=O)N[C@@H](CCONC(=N)N)C(=O)NCc1ccc(C(=N)N)cc1			Sprague Dawley rat, male, plasma	intravenous, 1 mg/kg, 3 h		concentration at time	154 ng/mL
C[C@H]1CN(C(=O)CC#N)[C@]12CCN(c1ncnc3[nH]ccc13)C2			dog, male	oral, 0.6 mg/kg, 9 months, repeated dose toxicity		exposure multiple over human	208 /204
Cl.Cn1c(=O)n(CCCCN2CCC3(CC2)OCc2ccccc23)c2ccccc21			rat, male, brain	iv, 10 mg/kg, 0.5 h		C0	464 ± 49.6 ng/g
CN1CCN(S(=O)(=O)c2cc([N+](=O)[O-])ccc2N(CCOS(C)(=O)=O)CCOS(C)(=O)=O)CC1			naive NOD/SCID mice, pooled blood	intraperitoneal, 25 mg/kg, week 4		calcium	2.7 mmol/L
C=CC(=O)N1CC[C@H](n2nc(C#Cc3cc(OC)cc(OC)c3)c3c(N)ncnc32)C1			human patients	oral, dose not given, QD regimen, adverse drug reaction, with: ferric citrate hydrate		AST increased, any grade	100%
COc1cc2c(Oc3ccc4[nH]c(C)cc4c3F)ccnc2cc1OCC1(N)CC1			paediatric recurrent refractory sarcoma	concentration not given, whole group		grade 1 or 2 Leukopenia	20.6%
C[C@]1(CO)Cc2ncn(-c3ccc(C#N)c(Cl)c3)c2C(=O)O1			human, plasma	40 mg, first dose fasted		half-life	5.1 h
[O-][S+]1CCc2nc(N3CCC(c4ncc(Cl)cn4)CC3)nc(NC3(CO)CCC3)c21 (centres unmarked)		refers to: abdominal distension	healthy male humans	36 mg single dose		adverse event incidence	0%
C[C@H]1COCCN1c1nc(NCc2cccnc2C(F)(F)F)c2cccnc2n1			BALB/c mouse	oral, 10 mg/kg		oral bioavailability	84%
CC(C)(c1ccccc1)c1cc(-n2nc3ccccc3n2)c(O)c(C(C)(C)c2ccccc2)c1		exposure assessment	human, age 16-21 years	cream		mean daily dermal uptake	0.77 ng/kg body weight/day
O=C(O)CCCOc1ccc(F)cc1-c1cc(-c2ccccc2C(F)(F)F)n(-c2ccccc2)n1		refers to: TG	Crl:CD(SD) rats, female, blood	iv, 25 µg/kg, 1 day		blood chemistry	16.1 ± 2.8 mg/dL
Clc1ccc(-c2ccccc2)cc1			Sprague-Dawley rats, female, serum	inhalation, 23 µg/rat, 4 h after exposure		albumin	3 ± 0.3 g/dL
Cn1cc(-c2nc(N[C@@H]3CCCC[C@@H]3N)c(F)c3c2C(=O)NC3)cn1		refers to: Cerebral haemorrhage	patients with relapsed or refractory AML	oral, dose not given, all doses		hemorrhagic adverse events	1 number of patients
Cc1cccc(Cn2nc(C3CC3)c3c(NC(=O)c4cnc5cc(OCCN6CCN(C)CC6)ccn45)cccc32)n1		refers to: Fatigue	human advanced solid tumours	oral, dose not given, all-causality,, all doses		adverse events incidence	36.8%
COc1ccc2nc3cc(Cl)ccc3c(Nc3cc(CN4CCCC4)c(O)c(CN4CCCC4)c3)c2n1			mouse, blood	intraperitoneal, 28 mg/kg		red cell distribution width (SD)	25.2 fL
Cn1c(-c2ccc(C(N)=O)cc2F)nnc1C(C)(C)Oc1c(F)cc(Cl)cc1F			human	oral, 6 mg, single ascending dose		subjects with any TEAE	50%
